{"data": "Experimental data of several laboratories", "HLA class I histocompatibility antigen, A alpha chain allele A*02:01": "HLA class I histocompatibility antigen, A alpha chain, allele A*02:01 (Homo sapiens, UniProt P04439)", "note": "Protocols differ between the studies behind these lines. Several values in a cell are separate wells, animals, samples, runs or records. Numbers after ± are the reported error.", "UniProt P48067, sequence (whole entry, looked up)": "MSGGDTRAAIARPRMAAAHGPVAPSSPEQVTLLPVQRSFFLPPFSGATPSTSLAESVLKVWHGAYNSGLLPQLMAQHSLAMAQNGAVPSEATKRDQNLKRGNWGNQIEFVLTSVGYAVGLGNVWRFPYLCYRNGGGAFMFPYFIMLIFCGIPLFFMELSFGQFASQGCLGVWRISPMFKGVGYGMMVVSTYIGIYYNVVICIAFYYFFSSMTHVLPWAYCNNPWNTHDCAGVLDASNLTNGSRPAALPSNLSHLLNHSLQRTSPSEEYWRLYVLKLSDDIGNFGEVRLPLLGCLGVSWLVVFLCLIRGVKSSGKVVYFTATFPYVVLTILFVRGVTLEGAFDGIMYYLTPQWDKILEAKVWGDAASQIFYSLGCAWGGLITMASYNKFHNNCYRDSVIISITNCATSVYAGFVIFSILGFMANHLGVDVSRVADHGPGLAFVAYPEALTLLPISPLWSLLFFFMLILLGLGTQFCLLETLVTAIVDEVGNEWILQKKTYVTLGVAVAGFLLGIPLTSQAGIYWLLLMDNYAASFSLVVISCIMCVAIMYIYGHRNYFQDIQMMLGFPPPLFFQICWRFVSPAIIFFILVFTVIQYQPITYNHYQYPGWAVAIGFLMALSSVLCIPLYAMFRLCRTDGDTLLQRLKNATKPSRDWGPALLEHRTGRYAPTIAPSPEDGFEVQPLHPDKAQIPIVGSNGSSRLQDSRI", "UniProt Q64663, sequence (whole entry, unmodified, looked up)": "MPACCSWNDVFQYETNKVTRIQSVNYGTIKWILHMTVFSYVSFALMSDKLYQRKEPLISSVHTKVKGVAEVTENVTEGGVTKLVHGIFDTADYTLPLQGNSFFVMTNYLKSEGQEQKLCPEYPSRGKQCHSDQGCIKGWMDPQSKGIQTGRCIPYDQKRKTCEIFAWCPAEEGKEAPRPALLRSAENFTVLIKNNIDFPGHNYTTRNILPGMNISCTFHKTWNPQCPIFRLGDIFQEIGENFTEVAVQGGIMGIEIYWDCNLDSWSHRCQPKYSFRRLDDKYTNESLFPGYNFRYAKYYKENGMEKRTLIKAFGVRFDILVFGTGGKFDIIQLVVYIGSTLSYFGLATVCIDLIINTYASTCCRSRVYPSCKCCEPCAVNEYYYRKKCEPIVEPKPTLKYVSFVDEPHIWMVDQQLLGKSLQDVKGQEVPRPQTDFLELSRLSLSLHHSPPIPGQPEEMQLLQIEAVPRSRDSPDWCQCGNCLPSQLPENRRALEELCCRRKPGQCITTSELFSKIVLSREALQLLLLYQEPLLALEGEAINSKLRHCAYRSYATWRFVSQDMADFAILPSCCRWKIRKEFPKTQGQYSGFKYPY", "UniProt Q8IUN9, sequence (whole entry, looked up)": "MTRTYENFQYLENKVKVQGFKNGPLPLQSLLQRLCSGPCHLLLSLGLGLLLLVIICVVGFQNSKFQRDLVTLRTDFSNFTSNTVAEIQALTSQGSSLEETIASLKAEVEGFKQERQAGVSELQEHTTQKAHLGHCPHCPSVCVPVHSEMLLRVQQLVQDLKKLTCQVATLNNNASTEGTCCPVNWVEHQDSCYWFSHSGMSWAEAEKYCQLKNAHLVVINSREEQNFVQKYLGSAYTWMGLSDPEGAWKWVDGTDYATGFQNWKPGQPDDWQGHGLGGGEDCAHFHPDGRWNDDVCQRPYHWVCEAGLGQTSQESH", "UniProt P18206, sequence (whole entry, looked up)": "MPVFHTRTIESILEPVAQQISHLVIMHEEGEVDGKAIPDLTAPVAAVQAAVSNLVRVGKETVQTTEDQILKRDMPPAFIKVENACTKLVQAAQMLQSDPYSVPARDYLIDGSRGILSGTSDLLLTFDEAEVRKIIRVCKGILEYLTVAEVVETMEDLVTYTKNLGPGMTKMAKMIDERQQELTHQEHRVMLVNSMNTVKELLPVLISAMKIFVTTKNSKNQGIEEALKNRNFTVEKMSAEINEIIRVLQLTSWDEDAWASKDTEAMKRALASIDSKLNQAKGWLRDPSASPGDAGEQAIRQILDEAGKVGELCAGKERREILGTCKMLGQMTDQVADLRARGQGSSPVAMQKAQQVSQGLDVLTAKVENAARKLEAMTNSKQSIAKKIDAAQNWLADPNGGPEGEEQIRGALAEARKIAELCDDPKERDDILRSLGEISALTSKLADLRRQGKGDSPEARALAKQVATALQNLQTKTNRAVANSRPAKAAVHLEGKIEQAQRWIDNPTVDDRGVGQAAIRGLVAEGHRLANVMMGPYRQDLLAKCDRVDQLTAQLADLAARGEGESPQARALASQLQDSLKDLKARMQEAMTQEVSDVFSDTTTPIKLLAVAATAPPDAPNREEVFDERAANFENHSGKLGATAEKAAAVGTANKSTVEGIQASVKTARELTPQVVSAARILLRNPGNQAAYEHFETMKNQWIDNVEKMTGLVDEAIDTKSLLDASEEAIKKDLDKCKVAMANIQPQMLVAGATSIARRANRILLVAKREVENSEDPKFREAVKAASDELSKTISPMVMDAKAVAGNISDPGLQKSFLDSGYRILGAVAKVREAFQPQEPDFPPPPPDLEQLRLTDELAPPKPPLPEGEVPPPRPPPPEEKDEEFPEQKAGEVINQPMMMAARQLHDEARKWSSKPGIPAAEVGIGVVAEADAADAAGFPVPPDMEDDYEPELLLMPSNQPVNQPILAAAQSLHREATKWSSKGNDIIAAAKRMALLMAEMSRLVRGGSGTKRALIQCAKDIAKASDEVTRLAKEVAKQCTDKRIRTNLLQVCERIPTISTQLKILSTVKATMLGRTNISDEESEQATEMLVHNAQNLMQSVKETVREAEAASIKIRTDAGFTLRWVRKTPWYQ", "UniProt P03372, sequence (whole entry, looked up)": "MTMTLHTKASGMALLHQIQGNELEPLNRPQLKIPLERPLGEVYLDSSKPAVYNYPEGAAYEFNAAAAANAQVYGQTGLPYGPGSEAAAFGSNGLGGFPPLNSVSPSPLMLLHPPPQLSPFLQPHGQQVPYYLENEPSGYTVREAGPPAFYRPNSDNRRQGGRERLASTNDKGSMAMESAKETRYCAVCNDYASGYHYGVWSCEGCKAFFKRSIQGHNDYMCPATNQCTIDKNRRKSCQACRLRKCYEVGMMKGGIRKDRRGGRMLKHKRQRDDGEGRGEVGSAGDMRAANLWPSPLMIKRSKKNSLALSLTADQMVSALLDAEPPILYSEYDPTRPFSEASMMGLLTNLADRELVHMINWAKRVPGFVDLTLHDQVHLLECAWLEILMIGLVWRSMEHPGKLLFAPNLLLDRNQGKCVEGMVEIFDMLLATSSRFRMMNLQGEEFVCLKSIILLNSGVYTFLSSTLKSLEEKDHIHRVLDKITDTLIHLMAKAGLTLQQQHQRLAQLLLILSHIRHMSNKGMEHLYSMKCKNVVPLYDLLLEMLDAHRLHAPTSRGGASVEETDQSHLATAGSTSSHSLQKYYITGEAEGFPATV", "UniProt Q9Y239, sequence (whole entry, looked up)": "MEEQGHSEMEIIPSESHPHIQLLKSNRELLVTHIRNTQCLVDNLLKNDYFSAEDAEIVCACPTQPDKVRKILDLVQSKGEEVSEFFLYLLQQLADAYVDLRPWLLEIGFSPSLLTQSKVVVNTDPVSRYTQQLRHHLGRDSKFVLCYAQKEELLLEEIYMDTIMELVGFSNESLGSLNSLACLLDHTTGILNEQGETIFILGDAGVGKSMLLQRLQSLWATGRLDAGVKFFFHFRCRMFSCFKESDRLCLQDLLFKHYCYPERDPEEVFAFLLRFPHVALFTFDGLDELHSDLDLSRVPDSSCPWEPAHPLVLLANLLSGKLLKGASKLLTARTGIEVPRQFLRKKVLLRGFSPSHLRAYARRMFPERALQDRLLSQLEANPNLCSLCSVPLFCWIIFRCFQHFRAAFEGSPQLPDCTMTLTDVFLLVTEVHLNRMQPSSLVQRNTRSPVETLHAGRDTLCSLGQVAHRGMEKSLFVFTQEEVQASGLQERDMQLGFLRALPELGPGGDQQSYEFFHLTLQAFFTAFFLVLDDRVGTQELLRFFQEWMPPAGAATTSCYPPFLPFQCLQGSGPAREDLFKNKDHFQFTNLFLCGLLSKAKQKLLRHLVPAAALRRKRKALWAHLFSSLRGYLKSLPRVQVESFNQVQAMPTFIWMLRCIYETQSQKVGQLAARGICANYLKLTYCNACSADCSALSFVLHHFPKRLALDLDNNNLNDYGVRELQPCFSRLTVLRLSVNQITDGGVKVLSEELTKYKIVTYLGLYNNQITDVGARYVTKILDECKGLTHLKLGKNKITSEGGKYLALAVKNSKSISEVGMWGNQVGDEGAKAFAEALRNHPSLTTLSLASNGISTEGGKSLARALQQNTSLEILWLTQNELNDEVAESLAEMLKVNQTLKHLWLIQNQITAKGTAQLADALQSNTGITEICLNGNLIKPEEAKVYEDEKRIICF", "UniProt P0A7Z4, sequence (whole entry, looked up)": "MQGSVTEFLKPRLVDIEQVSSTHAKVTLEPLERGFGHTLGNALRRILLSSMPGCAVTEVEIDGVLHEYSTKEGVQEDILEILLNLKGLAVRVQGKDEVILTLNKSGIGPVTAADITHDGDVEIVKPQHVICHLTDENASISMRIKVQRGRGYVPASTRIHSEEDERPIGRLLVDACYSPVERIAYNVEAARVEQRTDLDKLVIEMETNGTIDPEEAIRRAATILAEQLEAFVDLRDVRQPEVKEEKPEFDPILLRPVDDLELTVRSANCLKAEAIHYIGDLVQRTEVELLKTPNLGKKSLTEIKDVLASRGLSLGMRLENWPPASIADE"}
{"Substance": "LMDLSTTEV", "tested on": "HLA class I histocompatibility antigen, A alpha chain allele A*02:01", "test": "peptide-MHC stability, brefeldin A chase", "test system": "peptide, T2 cells", "quantity": "complex half-life", "result": "> 7 h"}
{"Substance": "colistin", "tested on": "Pseudomonas aeruginosa", "test": "broth microdilution", "test system": "clinical isolate RKI-No_615/15", "quantity": "MIC", "result": "1 µg/mL"}
{"Substance": "methyl-β-cyclodextrin", "tested on": "Sodium- and chloride-dependent glycine transporter 1 (SLC6A9, Homo sapiens, UniProt P48067)", "test": "transport activity, [3H]glycine uptake", "conditions": "3.5 mg/mL, 1 min, together with: glycine 150 µM", "scale": "higher = more transport", "quantity": "glycine uptake rate", "result": "20.8 a.u. and 39 a.u. and 38.2 a.u. and 20.6 a.u."}
{"Substance": "Phytol", "tested on": "uncharacterized protein (Drosophila suzukii, UniProt A0AB39ZGK5)", "test": "bis-ANS displacement, fluorescence competition binding", "conditions": "pH 7.4", "quantity": "IC50", "result": "> 50000 nM"}
{"Substance": "GEMVGQARILAQATSDLVNAIKDA", "tested on": "Vinculin, Vd1 head domain (VCL, Homo sapiens, UniProt P18206)", "test": "binding, isothermal titration calorimetry", "test system": "peptide", "conditions": "25 °C", "quantity": "Kd", "result": "304 ± 63 nM"}
{"Substance": "11-deoxycorticosterone", "tested on": "human CYP11B2", "test": "stopped-flow kinetic modelling", "conditions": "3-state induced fit model, together with: no adrenodoxin", "quantity": "Kd", "result": "2340 nM"}
{"Substance": "FITC-ATP", "tested on": "Nucleotide-binding oligomerization domain-containing protein 1 (NOD1, Homo sapiens, UniProt Q9Y239)", "test": "fluorescence polarization", "quantity": "Kd", "result": "25 nM"}
{"Substance": "EKPIDSETKM", "tested on": "human MAGI1-3/6 PDZ construct (MBP fusion)", "test": "surface plasmon resonance", "test system": "peptide", "conditions": "concentration not given", "scale": "higher = stronger binding", "quantity": "normalised SPR binding response", "result": "0 normalised RU"}
{"Substance": "FLAFVPLQL", "tested on": "HLA class I histocompatibility antigen, A alpha chain allele A*02:01", "test": "peptide-MHC stability, brefeldin A chase", "test system": "peptide, T2 cells", "quantity": "complex half-life", "result": "> 7 h"}
{"Substance": "Peginesatide", "tested on": "UT7/EPO", "test": "tyrosine phosphorylation, LC-MS/MS phosphoproteomics, GluC, measured: CD2AP tyrosine 361", "conditions": "10 nM, 15 min, together with: 10 U/mL EPO", "scale": "reference: vehicle", "quantity": "phosphorylation level", "result": "58 fold"}
{"Substance": "asialo ovine submaxillary mucin", "tested on": "CLEC10A (Homo sapiens, UniProt Q8IUN9)", "test": "glycan microarray", "quantity": "Kd", "result": "95 ± 18 nM"}
{"Substance": "BzATP", "tested on": "P2X purinoceptor 7 (P2rx7, Rattus norvegicus, UniProt Q64663, I214A/R125A)", "test": "ion current, agonist, two-electrode voltage clamp", "test system": "Xenopus laevis oocytes", "conditions": "300 µM", "scale": "reference: highest concentration response", "quantity": "normalized current", "result": "0.92 and 0.869 and 0.93"}
{"Substance": "BODIPY FL GTPγS", "tested on": "TACO1 (Homo sapiens, UniProt Q9BSH4)", "test": "nucleotide binding, fluorescence titration", "quantity": "Kd", "result": "25000 nM"}
{"Substance": "WLPFGFILI", "tested on": "HLA class I histocompatibility antigen, A alpha chain allele A*02:01", "test": "peptide-MHC stability, brefeldin A chase", "test system": "peptide, T2 cells", "quantity": "complex half-life", "result": "0.99 h"}
{"Substance": "GSGAGKETRV", "tested on": "human MAGI1-3/6 PDZ construct (MBP fusion)", "test": "surface plasmon resonance", "test system": "peptide", "conditions": "concentration not given", "scale": "higher = stronger binding", "quantity": "normalised SPR binding response", "result": "65.4 normalised RU"}
{"Substance": "epigallocatechin", "tested on": "Estrogen receptor (ESR1, Homo sapiens, UniProt P03372)", "test": "array formation, agonist", "test system": "ERα-GFP PRL-HeLa", "conditions": "1 h", "quantity": "EC50", "result": "1240 nM"}
{"Substance": "LMDLSTTPL", "tested on": "HLA class I histocompatibility antigen, A alpha chain allele A*02:01", "test": "peptide-MHC stability, brefeldin A chase", "test system": "peptide, T2 cells", "quantity": "complex half-life", "result": "2.19 h"}
{"Substance": "sacituzumab", "tested on": "rat TROP2", "test": "binding, bio-layer interferometry", "quantity": "Kd", "result": "no binding"}
{"Substance": "Rifamycin B", "tested on": "DNA-directed RNA polymerase subunit alpha (rpoA, Escherichia coli, UniProt P0A7Z4)", "test": "binding, competition pulldown mass spectrometry", "test system": "Escherichia coli lysate", "quantity": "Kd", "result": "82 nM"}
{"note": "Some of these lines once more:"}
{"Substance": "methyl-β-cyclodextrin", "tested on": "Sodium- and chloride-dependent glycine transporter 1 (SLC6A9, Homo sapiens, UniProt P48067)", "test": "transport activity, [3H]glycine uptake", "conditions": "3.5 mg/mL, 1 min, together with: glycine 150 µM", "scale": "higher = more transport", "quantity": "glycine uptake rate", "result": "20.8 a.u. and 39 a.u. and 38.2 a.u. and 20.6 a.u."}
{"Substance": "LMDLSTTPL", "tested on": "HLA class I histocompatibility antigen, A alpha chain allele A*02:01", "test": "peptide-MHC stability, brefeldin A chase", "test system": "peptide, T2 cells", "quantity": "complex half-life", "result": "2.19 h"}
{"Substance": "WLPFGFILI", "tested on": "HLA class I histocompatibility antigen, A alpha chain allele A*02:01", "test": "peptide-MHC stability, brefeldin A chase", "test system": "peptide, T2 cells", "quantity": "complex half-life", "result": "0.99 h"}
